Assay results gathered from unrelated publications.
Each numbered part is a random draw from the data of one study; scales do not carry over between parts. Positions count from the first letter of the parent shown.

Series 1
Target: CEBPD, bZIP domain (human)
Technique: DHFR protein complementation
Medium: yeast
Notes: single substitutions, most at no-binding floor
Baseline: wild-type JUN-FOS pair
Reading: higher = stronger binding
Starting sequence: JUN, bZIP domain (human); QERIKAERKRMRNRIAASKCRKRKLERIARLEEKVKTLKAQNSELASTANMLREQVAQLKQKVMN; partner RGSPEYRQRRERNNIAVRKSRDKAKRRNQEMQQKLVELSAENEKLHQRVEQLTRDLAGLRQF
Change	binding fitness [natural log]
V56M	-1.5
A57W	-1.38
S43R	-1.29
L38W	-1.5
T37R	-1.35
K39M	-1.32
L45H	-1.51
A29W	-1.36
L38F	-1.47
L45Q	-1.5
K36G	-1.42
N42G	-1.49
V56K	-1.43
E33D	-1.31
M51D	-1.12
R53A	-1.02
R30E	-1.19
E54K	-1.31
K34A	-1.29
L31V	-1.37
T48R	-1.27
K39G	-1.37

Series 2
Target: ABI1, truncated, D143A, DHFR fusion (Arabidopsis thaliana)
Technique: DHFR PCA, deep sequencing
Medium: yeast
Notes: methotrexate growth selection, single substitutions
With: (+)-ABA 1.4 µM
Baseline: wild-type fitted maximum
Reading: higher = stronger binding
Starting sequence: PYL1, truncated, DHFR fusion (Arabidopsis thaliana); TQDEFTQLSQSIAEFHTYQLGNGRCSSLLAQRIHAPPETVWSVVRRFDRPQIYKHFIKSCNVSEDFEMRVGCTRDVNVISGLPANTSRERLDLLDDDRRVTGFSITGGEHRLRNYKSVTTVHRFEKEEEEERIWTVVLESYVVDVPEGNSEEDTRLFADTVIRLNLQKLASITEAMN
Change	relative binding score [%]
L138Q	10
I12P	0.843
D75L	68.5
C60M	-3.28
E127Y	49.1
D144N	0.346
F103V	-7.33
R69L	23.3
T73L	47
D153Y	1.64
Q51T	1.42
S150M	-7.14
E147W	12.4
S27P	-4.76
S150W	-3.22
E131I	52.3
A170C	31.8
G71Y	-6.43
L166G	6.27
I105W	-4.29
L156G	6.99
T160K	11.9
V70G	0.369
E125F	62.7
G23I	1.95

Series 3
Target: RNA binding protein fox-1 homolog 2, RRM domain, GST-SBP tag (RBFOX2, Homo sapiens, UniProt O43251-10, residues 100-194)
Technique: RNA Bind-n-Seq
Molecule type: RNA
Medium: in vitro
Concentration: 365 nM
Notes: natural RNA segment, single round, ends assumed
Baseline: no-protein control
Reading: higher = stronger binding
All sequences stand within: GGGAGUUCUACAGUCCGACGAUC … UGGAAUUCUCGGGUGCCAA
Target sequence (chain): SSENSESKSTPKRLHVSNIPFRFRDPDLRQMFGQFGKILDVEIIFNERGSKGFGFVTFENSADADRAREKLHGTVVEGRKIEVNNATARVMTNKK
Oligonucleotide	RBNS enrichment (R)
UUUAUUUGGGGGCACUAAGUUUAGAUGAGAUGAAUUGCCUCAUAGGAAAUGGAAUUGGUCAGGAUAGAUGGUGUGAAACUGAUAAGAGGUUUUGGAUGUGAAAAAGAGUU	1.16
UGAGAUCAUGUUUACAGACCUGUUUUGUCAUCCUGCUGCCAAGAAGUUUUUUAAUCACUUGAAUAAAUUGAUAUAAUAAAAGGAGCCACCAGGUGGUGUGUGGAUUCUGA	0.287
UGGGCCUCUCGGAUGAAGGUGGACCCAAGUCAGAAGGAGCGCCAAAGGCCAAAUCAAAACCCCGGAAGCGGUUAGAAGAAAGCCAAGGAGGCCCCAAGCCAGGGGCAGUG	0.235
UGGUCAAGCUUGUAAAUAACUUUUUUUACAUUUUAAUCUUUUCCAUUAAUUAAGAGGUUGAAAAGAAGUGCAGUGUAAGAAAACCCAGCAUUUUAAUUACUUGCAAAUUA	0.826
UGAUCUCAGGGAAGCCCAGCUCCAGGGCCAGAUGAGCAGAAGCUCUCGAUGGACAAUGAACGGCCUUGCUGGGGGCCGCCCUGUACCCUCUUUCACCUUUCCCUAAAGAC	0.573
AAACUAGAGGGCGAGAGGGGCCCCUGAAAGUUCCUGUGACAGGGAUGCUCAGCAGGGAGGAGGGAAAGCCUGUAUAGCUAGCCUGACAUUUUGUUUCUUGUACAAUAUCU	0.757
AAUGGAAGUUAGGUGAGGAGUUGAAGGUUGGUUUCUUGCGCUGUGCUUCCUUGGCUUGGGGGAGGGGGCAUCCGUCCCCCUCUGUGUGAACACAGCUCACCGCGUCACCU	0.57
CUAAUUCAUUGCAGUUCAUACUUAUUGACUCAGAGUUUAAAACCACAAUCUGUAGGCUUUAAGAAUUGCUUUUAAACCUUUUUAAGUGAUAAACUCUUGAAGUGGUCUUA	0.477
AUCCAUUUUGUGGAUUUUAUGUGUUUGUGGCUUAAUAAUCAUAGUAACAACAAUAAUACCUUUUUCUCCAUUUUGCUUGCAGGAAACAUACCUUAAGUUUUUUUUGUUUU	2.74
CAGAGAGAUCAGCCCACCCUGCAGACCCACAGAGAAGAUUCAGAGUGUGUGUGAGAGUGAGUGAGUGUGCGUGCGUGCGUGCUUGUAUGUAUGUUUGUAUAUGUAGGACA	2.65
CCCUGCGUCUUCAUUUCCGUGUGUGUGCAACUGCUCCGCUCCAAGAACUGCACCGCUGUCUUGUGAGCAUGGCGUGAACAGGCUGUUUUGCUCCAGCCACUUUUCUUGUA	1.18
AAAAAAUAAAAACAAGAAUUUGGUCUAAGACCAUACAGCAGAUUGAUAUGCUGGCACAGAUUUGUUCAGAAGUGGACAGAGACUUACAAGGUAGAGUAUCCCAAUGAGAG	0.599

Series 4
Target: CCND2, cyclin fold, Cln2 fusion (human)
Technique: yeast growth competition, sequencing
Medium: yeast
Notes: weak parent motif
Baseline: not given
Reading: higher = stronger binding
Starting sequence: RB1 docking peptide (human); PKPLKKLRFDIEG
Change	normalised enrichment score
K5S	0.32
G13W	-0.0267
L4N	0.374
L7I	0.383
G13A	-0.0545
P1E	0.482
K5C	-0.162
G13I	0.699
E12T	0.245
D10V	0.371
E12S	-0.0223
F9D	0.42
P3Q	0.17
K2H	0.218
K2S	0.164
P1C	0.746
P1H	0.412
L7Y	-0.0589
I11R	-0.396
P1Q	0.318
P1A	0.197
I11H	0.491
R8K	0.128
D10F	-0.0783
K5R	0.00419

Series 5
Target: UBE2L6 UBC core domain (UniProt O14933)
Technique: yeast two-hybrid
Medium: yeast
Notes: mostly zero background
Baseline: not given
Reading: higher = stronger interaction
B1: RNF24 RING domain (UniProt Q9Y225); chain KVKELNLHELCAVCLEDFKPRDELGICPCKHAFHRKCLIKWLEVRKVCPLCNMPVLQLAQLH
B2: PRKN RING domain (UniProt O60260); chain LIATNSRNITCITCTDVRSPVLVFQCNSRHVICLDCFHLYCVTRLNDRQFVHDPQLGYSLPCVAGCPNSLIKELHH
B3: RNF181 RING domain (UniProt Q9P0P0); chain VIRGSQAELKCPVCLLEFEEEETAIEMPCHHLFHSSCILPWLSKTNSCPLCRYELPTDDDTY
B4: Ltn1 RING domain (UniProt Q6A009); chain VDKRFEGVEDCMICFSVIHGFNYSLPKKACRTCKKKFHSACLYKWFTSSNKSTCPLCRETFF
B5: ZNRF3 RING domain (UniProt Q9ULT6); chain DTLSSSSTSDCAICLEKYIDGEELRVIPCTHRFHRKCVDPWLLQHHTCPHCRHNIIEQKGNP
Target sequence (chain): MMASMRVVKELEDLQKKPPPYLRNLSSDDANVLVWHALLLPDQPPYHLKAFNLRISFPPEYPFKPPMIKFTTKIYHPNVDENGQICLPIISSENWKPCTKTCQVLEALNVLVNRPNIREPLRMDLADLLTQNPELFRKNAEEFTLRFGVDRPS
Molecule	lacZ reporter activity
B1 (RNF24 RING domain)	0
KITELNPHLMCVLCGGYFIDATTIIECLHSFCKTCIVRYLETSKYCPICDVQVHKTRPLL (BMI1 RING domain (UniProt P35226))	0
B2 (PRKN RING domain)	0
ALDRLEKLLRCSRCTNILREPVCLGGCEHIFCSNCVSDCIGTGCPVCYTPAWIQDLKI (BARD1 RING domain (UniProt Q99728))	0
B3 (RNF181 RING domain)	0
MDDQGCPRCKTTKYRNPSLKLMVNVCGHTLCESCVDLLFVRGAGNCPECGTPLRKSNFRV (MNAT1 RING domain (UniProt P51948))	0
B4 (Ltn1 RING domain)	0
B5 (ZNRF3 RING domain)	0

Repeated from above (series 4):
Change	normalised enrichment score
D10V	0.371
E12S	-0.0223
F9D	0.42
P3Q	0.17
K2H	0.218
K2S	0.164
P1C	0.746
